Measurements of several laboratories.
Lines come from different studies, so protocols differ.

| Structure (SMILES) | assay | system | conditions | measurement | value |
| --- | --- | --- | --- | --- | --- |
| O=C(COc1ccc(Cl)cc1)NC12CC(c3nnc([C@H]4C[C@@H](OC(F)(F)F)C4)o3)(C1)C2 | – | healthy human volunteers fasted, plasma | oral, 200 mg single dose, arithmetic mean | Cmax | 2150 nM |
| CCn1cc(C(=O)N2CCOCC2)c(=O)c2cc(NC3Cc4ccccc4C3)cnc21 | – | human, fed | oral suspension, 600 mg single dose, arithmetic mean | Cmax | 1880 ng/mL |
| C=CC(=O)N(C)CCOc1c(N)ncnc1-c1cc(F)cc(NC(=O)c2ccc(C3CC3)cc2F)c1C | – | human | oral, 20 mg, day 7, arithmetic mean, with: ritonavir | Cmax per dose | 9 ng/mL/mg |
| C[C@@H]1CCO[C@H]2Cn3cc(C(=O)NCc4ccc(F)cc4F)c(=O)c(O)c3C(=O)N12 | – | human, body weight 25 to <30 kg, plasma | oral, 35 mg, film-coated tablet, steady state | Cmax | 4000 ng/mL |
| Cl.[2H]C([2H])([2H])CC(=O)c1cnc(NC(=O)C2CC2)cc1Nc1cccc(-c2ncn(C([2H])([2H])[2H])n2)c1OC | – | human, fed, plasma | oral, 25 mg, single dose, liquid formulation | Cmax | 131 ng/mL |
| COc1ncc(-c2nc3c(n2C(C)C)[C@H](c2ccc(Cl)cc2)N(c2cc(Cl)cn(C)c2=O)C3=O)c(OC)n1 | LC-MS/MS, noncompartmental | human, plasma | oral, 120 mg, C2D1, high-dose, geometric mean | Cmax | 852 ng/mL |
| CCN1CCN(Cc2ccc(Nc3ncc(F)c(-c4cc(F)c5nc6n(c5c4)[C@H](C)CCC6)n3)nc2)CC1 | – | human, plasma | 200 mg multiple dosing, mean | Cmax | 283 ng/mL |
| O=C(O)CCC(=O)O.[2H]C([2H])([2H])Oc1cc(C)c2[nH]ccc2c1CN1CC[C@@H](C2CC2)C[C@H]1c1ccc(C(=O)O)cc1 | – | healthy humans, fed | oral, 200 mg, single dose, high-fat meal | Cmax | 3390 ng/mL |
| COc1cc(N2CCC(N3CCN(C)CC3)CC2)ccc1Nc1ncnc(Nc2ccccc2S(=O)(=O)C(C)C)n1 | – | human, plasma | oral, 50 mg, day 1 | Cmax | 184 ng/mL |
| CCOc1c([C@H](C)n2nc(C)c3c(N)ncnc32)cc(Cl)c(F)c1[C@@H]1CNC(=O)C1 | – | human, DLBCL, plasma | oral, 20 mg, day 15 | Cmax | 2060 nM |
| CO[C@H]1C[C@@H]2CC[C@@H](C)[C@@](O)(O2)C(=O)C(=O)N2CCCC[C@H]2C(=O)O[C@H]([C@H](C)C[C@@H]2CC[C@@H](OC(=O)NCCOCCOCCOCCOCCOCCOCCOCCOCCC(=O)N3CCc4cc(Cn5nc(-c6ccc7oc(N)nc7c6)c6c(N)ncnc65)ccc4C3)[C@H](OC)C2)C[C@@H](O)[C@H](C)/C=C(\C)[C@@H](O)[C@@H](OC)C(=O)[C@H](C)C[C@H](C)/C=C/C=C/C=C/1C | – | human patients, plasma | intravenous, 10 mg, cycle 1 day 15, 1 h infusion | Cmax | 284 nM |

For quick reference, copied from above:
| Structure (SMILES) | assay | system | conditions | measurement | value |
| --- | --- | --- | --- | --- | --- |
| C=CC(=O)N(C)CCOc1c(N)ncnc1-c1cc(F)cc(NC(=O)c2ccc(C3CC3)cc2F)c1C | – | human | oral, 20 mg, day 7, arithmetic mean, with: ritonavir | Cmax per dose | 9 ng/mL/mg |
